Experimental data gathered from unrelated publications.
Each line is one published result; not all experiments were run side by side. “And” joins repeats or separate records; there may be more than shown. Numbers after ± are the reported error.

| Structure (SMILES) | target or system | test | system | setting | how to read | measurement | value |
| --- | --- | --- | --- | --- | --- | --- | --- |
| COc1cc2c(Oc3ccc4[nH]c(C)cc4c3F)ccnc2cc1OCC1(N)CC1 | – | – | paediatric refractory sarcoma patients | 10 mg | – | QTc prolongation incidence | 0% |
| COc1ccc(CC(=O)NC2CCN(Cc3ccc(-c4ccccc4OC)cc3)C2)cc1 (stereo not shown) | Vero-E6 | CellTiter-Glo ATP | – | 72 h, first round 5-point | reference: DMSO 0%, hyamine -100%, more negative, more toxic | maximum response | -4.86% |
| C[C@]1(O)C[C@@](N)(c2ccc(-c3nc4n(c3-c3ccccc3)COc3ccncc3-4)cc2)C1 | – | – | human, advanced or metastatic solid tumours | 28 mg intermittent, phase I dose escalation | – | patients with AST increased | 0% |
| CC(C)C[C@H](NC(=O)[C@H](CCCCN)NC(=O)OCC1c2ccccc2-c2ccccc21)C(=O)N[C@H](C(=O)N[C@@H](Cc1ccccc1)C(=O)N[C@@H](Cc1ccccc1)C(=O)N[C@@H](CCCCN)C(=O)NCC(=O)N[C@@H](Cc1ccccc1)C(=O)N[C@@H](C)C(=O)N[C@@H](Cc1c[nH]c2ccccc12)C(=O)N[C@@H](CC(N)=O)C(=O)N[C@H](C(=O)N[C@H]1CSSC[C@@H](C(=O)N[C@@H](Cc2c[nH]cn2)C(=O)N[C@@H](CCCNC(=N)N)C(=O)N[C@@H](CCCNC(=N)N)C(=O)N[C@@H](C)C(=O)N[C@@H](CC(N)=O)C(N)=O)NC(=O)[C@H](C(C)C)NC(=O)[C@H](CCCNC(=N)N)NC(=O)[C@H](C(C)C)NC(=O)CNC(=O)[C@H](CC(N)=O)NC(=O)[C@H](CCCNC(=N)N)NC(=O)[C@H](Cc2ccc(O)cc2)NC(=O)[C@H](C(C)C)NC1=O)C(C)C)C(C)C | – | HPLC | mouse liver homogenate 50 mg/mL | 8.00 h | – | peptide remaining | 38.4% and 34.1% and 40.8% |
| CCCCCCCCCCCCCCCC(=O)N[C@@H](CCC(=O)NCCCC[C@H](NC(=O)[C@H](CC(=O)O)NC(=O)[C@H](CO)NC(=O)[C@@H](NC(=O)[C@H](Cc1ccccc1)NC(=O)[C@@H](NC(=O)CNC(=O)[C@H](CCC(N)=O)NC(=O)[C@H](CO)NC(=O)[C@@H](N)Cc1c[nH]cn1)[C@@H](C)O)[C@@H](C)O)C(=O)N[C@@H](CO)C(=O)N[C@@H](CCC(=O)O)C(=O)N[C@@H](Cc1ccc(O)cc1)C(=O)N[C@@H](CC(C)C)C(=O)N[C@@H](CC(=O)O)C(=O)N[C@@H](CO)C(=O)N[C@@H](CCC(=O)O)C(=O)N[C@@H](CCCNC(=N)N)C(=O)N[C@@H](C)C(=O)N[C@@H](CCCNC(=N)N)C(=O)N[C@@H](CC(=O)O)C(=O)N[C@@H](Cc1ccccc1)C(=O)N[C@H](C(=O)N[C@@H](C)C(=O)N[C@@H](Cc1c[nH]c2ccccc12)C(=O)N[C@@H](CC(C)C)C(=O)N[C@@H](CCC(=O)O)C(=O)N[C@@H](C)C(=O)NCC(=O)NCC(=O)O)C(C)C)C(=O)O | – | – | human, CrCl ≥45 to <60 mL/min | sc, 100 µg single dose | – | injection site bruising | 14.3% |
| C[C@@H]1OC(=O)NN=C1c1ccc(-c2ccc(F)cc2)c(C(F)(F)F)c1 | – | phase I trial, measured: Nausea worst grade 1 | human patients | 5 mg once daily | – | patients with adverse event | 0% |
| CO[C@H]1C[C@@H]2CC[C@@H](C)[C@@](O)(O2)C(=O)C(=O)N2CCCC[C@H]2C(=O)O[C@H]([C@H](C)C[C@@H]2CC[C@@H](OC(=O)NCCOCCOCCOCCOCCOCCOCCOCCOCCC(=O)N3CCc4cc(Cn5nc(-c6ccc7oc(N)nc7c6)c6c(N)ncnc65)ccc4C3)[C@H](OC)C2)C[C@@H](O)[C@H](C)/C=C(\C)[C@@H](O)[C@@H](OC)C(=O)[C@H](C)C[C@H](C)/C=C/C=C/C=C/1C | – | phase 1 dose escalation | advanced solid tumour patients | intravenous, 16 mg weekly, grade ≥3 | – | any SAE incidence | 50% |
| CC(C)[C@@H]1NC(=O)CNC(=O)[C@H](CC(N)=O)NC(=O)[C@H](CCCNC(=N)N)NC(=O)[C@H](Cc2ccc(O)cc2)NC(=O)[C@H](C(C)C)NC(=O)[C@@H](NC(=O)[C@@H](NC(=O)[C@H](CC(N)=O)NC(=O)[C@H](Cc2c[nH]c3ccccc23)NC(=O)[C@H](C)NC(=O)[C@H](Cc2ccccc2)NC(=O)CN)C(C)C)CSSC[C@@H](C(=O)N[C@@H](Cc2cnc[nH]2)C(=O)N[C@@H](CCCNC(=N)N)C(=O)N[C@@H](CCCNC(=N)N)C(=O)N[C@@H](C)C(=O)N[C@@H](CC(N)=O)C(N)=O)NC(=O)[C@H](C(C)C)NC(=O)[C@H](CCCNC(=N)N)NC1=O | – | – | ICR mice, serum | intraperitoneal, 5 mg/kg, day 5 | – | albumin | 34.4 ± 0.94 g/L |
| COc1cccc(Oc2ccccc2NC(=O)CNC(=O)c2cccc3ccccc23)c1 | – | – | esterase-deficient SCID mice, male | oral, 100 mg/kg/day, 14 days, toxicity study | – | bicarbonate (total CO2) | 22 mmol/L and 18 mmol/L and 20 mmol/L |
| CC[C@H](C)[C@H](NC(=O)[C@H](Cc1ccccc1)NC(=O)[C@H](CCC(=O)O)NC(=O)[C@H](CCCNC(=N)N)NC(=O)[C@H](C)NC(=O)[C@H](C)NC(=O)[C@H](CCC(N)=O)NC(=O)[C@H](CCC(=O)O)NC(=O)[C@H](CCC(=O)O)NC(=O)[C@H](CC(C)C)NC(=O)[C@H](Cc1ccc(O)cc1)NC(=O)[C@H](CO)NC(=O)[C@H](CO)NC(=O)[C@@H](NC(=O)[C@H](CC(=O)O)NC(=O)[C@H](CO)NC(=O)[C@@H](NC(=O)[C@H](Cc1ccccc1)NC(=O)[C@@H](NC(=O)CNC(=O)[C@H](CCC(=O)O)NC(=O)[C@H](C)NC(=O)CCc1cnc[nH]1)[C@@H](C)O)[C@@H](C)O)C(C)C)C(=O)N[C@@H](C)C(=O)N[C@@H](Cc1c[nH]c2ccccc12)C(=O)N[C@@H](CC(C)C)C(=O)N[C@H](C(=O)N[C@@H](CCCNC(=N)N)C(=O)NCC(=O)N[C@@H](CCCNC(=N)N)C(=O)N[C@@H](CCCCNC(=O)COCCOCCNC(=O)COCCOCCNC(=O)CC[C@H](NC(=O)CCCCCCCCCCCCCCCCC(=O)O)C(=O)O)C(=O)NCC(=O)NCC(=O)N[C@@H](CO)C(=O)N[C@@H](CCCCNC(=O)[C@H](CCCCNc1c(NCCCCCN(O)C(=O)CCC(=O)NCCCCCN(O)C(=O)CCC(=O)NCCCCCN(O)C(C)=O)c(=O)c1=O)Nc1c(NCCCCCN(O)C(=O)CCC(=O)NCCCCCN(O)C(=O)CCC(=O)NCCCCCN(O)C(C)=O)c(=O)c1=O)C(=O)O)C(C)C [zirconium-89 labelled] | – | ex vivo gamma counting | Sprague-Dawley rat, male, brain | intravenous, 1 nmol, 24 h | – | tissue uptake | 0.014 %ID/g and 0.017 %ID/g and 0.018 %ID/g |
| CN1CC[C@@H](c2c(O)cc(O)c3c(=O)cc(-c4ccc(C(F)(F)F)cc4Cl)oc23)[C@@H]1CO | – | measured: Hypotension | relapsed AML | oral, 200 mg, grade 3-4, intermittent dosing | – | patients with adverse event | 10% |
| CCCCN(C)CCCNC(=O)c1ccc2nc(N3CCCCC3)sc2c1 | Vero-E6 | CellTiter-Glo ATP | – | concentration not given, 72 h, second round 5-point | reference: DMSO 0%, hyamine -100%, more negative, more toxic | cytotoxicity efficacy | 0% |
| Cn1c(-c2ccc(C(N)=O)cc2F)nnc1C(C)(C)Oc1c(F)cc(Cl)cc1F | – | – | human | oral, dose not given, single ascending dose all doses | – | subjects with any TEAE | 30.6% |
| Cc1cc(C)c(CNC(=O)c2cc(Cl)c3c(c2C)O[C@@](C)([C@H]2CC[C@H](N(C)C)CC2)O3)c(=O)[nH]1 | – | – | relapsed/refractory NHL patients | dose not given, trial, safety set, all TEAEs grade 5 | – | incidence of dry skin | 0% |
| CC(=O)c1c(C)c2cnc(Nc3ccc(C4CCN(CCS(C)(=O)=O)CC4)cn3)nc2n(C2CCCC2)c1=O | – | – | human, plasma | oral, 75 mg twice daily, day 1, single dose, together with: letrozole | – | MRT | 5.01 h |
| C[C@]1(CO)Cc2ncn(-c3ccc(C#N)c(Cl)c3)c2C(=O)O1 | – | – | human, plasma | 20 mg single dose, geometric mean | – | half-life | 5.5 h |

| Structure (SMILES) | target or system | test | system | setting | how to read | measurement | value |
| --- | --- | --- | --- | --- | --- | --- | --- |
| CC(C)n1c(C2CCNCC2)nc2c([N+](=O)[O-])c(Br)c(Br)cc21 | – | measured: Leukocytosis | AML patients | dose not given, all doses | – | related grade ≥3 adverse events | 0% |
| CCC[C@@](N)(CO)CCc1ccc(OCCCCCC(C)C)cc1 | – | – | dog, male hounds, plasma | oral capsule, 10 mg/kg, median | – | Tmax | 6 h |
| O=c1ccc2ncc(=O)n3c2n1C[C@H]3CN1CCC(NCc2cc3c(cn2)OCCC3)CC1 | – | – | healthy human volunteers, plasma | oral, 1500 mg, alone, arithmetic mean | – | AUC(0-t) | 19600 ng·h/mL |
| COc1ccc(C[C@@H]2NC(=O)[C@H]([C@@H](C)O)NC(=O)[C@@H]3[C@@H]4CCN3C(=O)[C@@H]3Cc5cn(c6ccc(F)cc56)CCCCCCN(Cc5ccc(cc5)CCNC(=O)[C@]5(C)CCCN5C2=O)C(=O)CCC(=O)N[C@@H](C)C(=O)N[C@H](CNC(=O)CCCCC[N+](C)(C)C)C(=O)N[C@@H](Cc2cccc(c2)CNC(=O)CO4)C(=O)N3)cc1 | – | measured: neck pain | human | dose not given | – | participants with adverse event | 3.2% |
| CC(C)[C@@H](CN1CC[C@@](C)(c2cccc(O)c2)[C@@H](C)C1)NC(=O)[C@@]1(C)Cc2ccc(O)cc2CN1 | – | – | rat | intraperitoneal, 5 mg/kg, brain over plasma AUClast | – | Kp | 1.71 |
| O=C(Oc1ccc(Cl)cc1)[c-]1cccc1.[Fe+2].c1cc[cH-]c1 | – | cyclic voltammetry | methanol/DMEM 1:1 with TBAPF6 | concentration not given, Pt disk electrode, Ag/AgCl reference, together with: scan rate 100 mV/s | – | reduction potential | 476 mV |
| COc1ncccc1-c1cnn2ccc(N3CCN(C(=O)OC(C)C)CC3)nc12 | – | – | rat, CCI cold allodynia model, plasma | oral, 1 mg/kg, 240 min | – | drug concentration | 100 nM |
| CC(C)=CC1C(C(=O)OC(C#N)c2cccc(Oc3ccccc3)c2)C1(C)C (stereo not shown) | – | measured: CYP2B6 | human, age 1 year | – | – | enzyme contribution to clearance | 0.88% |
| Cc1cccc(Cn2nc(C3CC3)c3c(NC(=O)c4cnc5cc(OCCN6CCN(C)CC6)ccn45)cccc32)n1 | – | measured: Hypokalemia | human pancreatic ductal adenocarcinoma | oral, dose not given, all-causality | – | adverse events incidence | 14.8% |
| O=C(Nc1ccccc1)C1CCN(C(=O)Oc2cccnc2)CC1 | – | measured: reproductive and breast disorders | healthy women | oral, 60 mg, 7 days | – | subjects with adverse event | 14.3% |
| [2H]C([2H])([18F])[C@]([2H])(N)C(=O)O | – | radio-HPLC | saline formulation | up to 3 h | – | radiochemical purity | > 98% |
| O=C1Nc2cc3[nH]nc(-c4ccncc4)c3cc2CN1Cc1ccccc1 | – | CTCAE v4.03 | advanced solid tumour patients | intravenous, 9.6 mg/kg, schedules 1/2 | – | patients with increased GGT | 33% |
| COc1ccc(-c2c(-c3ccc(C#N)c(F)c3)nc(N3CCC(N)CC3)n(C)c2=O)cc1F | – | measured: Fatigue/asthenia | human patients | oral, dose not given, grade 3 to 4, dose escalation, NG | – | treatment-related adverse event incidence | 2% |
| O=S(=O)(Nc1ccccc1)c1ccc(NC(=S)Nc2ccccc2)cc1 | – | measured: CHOL | female mouse, blood | oral, 5 mg/kg daily, 14 days | – | blood chemistry level | 153 mg/dL |
| O=C(O)CCCOc1ccc(F)cc1-c1cc(-c2ccccc2C(F)(F)F)n(-c2ccccc2)n1 | – | – | male Crl:CD(SD) rats, lungs | intravenous, 25 µg/kg, 14 d | – | relative organ weight | 0.31 ± 0.01 g% |

Excerpt of the above:
| Structure (SMILES) | target or system | test | system | setting | how to read | measurement | value |
| --- | --- | --- | --- | --- | --- | --- | --- |
| CN1CC[C@@H](c2c(O)cc(O)c3c(=O)cc(-c4ccc(C(F)(F)F)cc4Cl)oc23)[C@@H]1CO | – | measured: Hypotension | relapsed AML | oral, 200 mg, grade 3-4, intermittent dosing | – | patients with adverse event | 10% |
| COc1cccc(Oc2ccccc2NC(=O)CNC(=O)c2cccc3ccccc23)c1 | – | – | esterase-deficient SCID mice, male | oral, 100 mg/kg/day, 14 days, toxicity study | – | bicarbonate (total CO2) | 22 mmol/L and 18 mmol/L and 20 mmol/L |
| Cn1c(-c2ccc(C(N)=O)cc2F)nnc1C(C)(C)Oc1c(F)cc(Cl)cc1F | – | – | human | oral, dose not given, single ascending dose all doses | – | subjects with any TEAE | 30.6% |
